Published values gathered from unrelated publications.
Each line is one published result; not all experiments were run side by side. ± gives the spread as reported.
Target: mushroom tyrosinase

SMILES | assay | conditions | IC50
COc1c2c(cc3oc(=O)cc(C)c13)C(=O)c1cc(C)cc(O)c1C2=O | enzyme activity | together with: L-DOPA | > 100 µg/mL
OCC1CSC(c2ccc(O)c(Br)c2)S1 (stereo not drawn) | enzyme activity, inhibitor, dopachrome absorbance | together with: L-tyrosine | 15.6 ± 3.31 µM
Cc1cc(O)cc2c1C(=O)c1c(cc3oc(=O)cc(-c4ccccc4)c3c1O)C2=O | enzyme activity | together with: L-DOPA | > 100 µg/mL
Oc1ccc(COCc2ccc(O)cc2)cc1 | – | together with: L-tyrosine | 378 µM
O=C1c2ccccc2C(=O)c2c1ccc1c2C(C(=O)Nc2ccc(Br)cc2)C(=O)C1c1ccccc1 (stereo not drawn) | inhibitor | together with: L-DOPA substrate | 42.6 ± 1.04 µg/mL
Oc1ccc(Sc2ccc(O)cc2)cc1 | – | together with: L-tyrosine | 102 µM
COc1ccc(NC(=O)C2C(=O)C(c3ccccc3)c3ccc4c(c32)C(=O)c2ccccc2C4=O)cc1 (stereo not drawn) | inhibitor | together with: L-DOPA substrate | 87.3 ± 1.84 µg/mL
O=C(/C=C\c1ccc(O)cc1)NCCCCN(CCCNC(=O)/C=C/c1ccc(O)cc1)C(=O)/C=C\c1ccc(O)cc1 | enzyme activity, inhibitor | together with: L-DOPA | 13.6 µM
Cc1cc(O)c2c(c1)C(=O)c1cc3oc(=O)cc(C)c3c(O)c1C2=O | enzyme activity | together with: L-DOPA | > 100 µg/mL
COc1ccc(C2SCC(CO)S2)cc1 (stereo not drawn) | enzyme activity, inhibitor, dopachrome absorbance | together with: L-tyrosine | 16.5 ± 2.36 µM
COc1c2c(cc3oc(=O)cc(-c4ccccc4)c13)C(=O)c1cc(C)cc(O)c1C2=O | enzyme activity | together with: L-DOPA | > 100 µg/mL
O=C1c2ccccc2C(=O)c2c1ccc1c2C(C(=O)NCc2ccccc2)C(=O)C1c1ccccc1 (stereo not drawn) | inhibitor | together with: L-DOPA substrate | 99.98 ± 0.01 µg/mL

Some of these lines once more:
SMILES | assay | conditions | IC50
COc1c2c(cc3oc(=O)cc(-c4ccccc4)c13)C(=O)c1cc(C)cc(O)c1C2=O | enzyme activity | together with: L-DOPA | > 100 µg/mL
